Measurements collected from several papers.
Every numbered part comes from another study and shows a few of its results, in no order. Several values in a cell are separate wells, animals, samples, runs or records.
Sequence of UniProt Q02750 (whole entry, looked up): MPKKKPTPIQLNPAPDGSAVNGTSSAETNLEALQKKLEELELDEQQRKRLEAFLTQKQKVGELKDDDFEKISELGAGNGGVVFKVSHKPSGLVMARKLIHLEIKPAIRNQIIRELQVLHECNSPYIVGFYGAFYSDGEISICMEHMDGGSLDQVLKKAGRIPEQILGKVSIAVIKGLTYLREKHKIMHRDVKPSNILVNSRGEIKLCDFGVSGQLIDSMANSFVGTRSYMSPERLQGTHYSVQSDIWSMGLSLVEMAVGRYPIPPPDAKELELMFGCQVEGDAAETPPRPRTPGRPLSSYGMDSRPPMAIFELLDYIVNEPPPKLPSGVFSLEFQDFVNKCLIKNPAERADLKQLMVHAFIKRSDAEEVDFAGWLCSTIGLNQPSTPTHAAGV
Sequence of UniProt Q9UL54 (whole entry, looked up): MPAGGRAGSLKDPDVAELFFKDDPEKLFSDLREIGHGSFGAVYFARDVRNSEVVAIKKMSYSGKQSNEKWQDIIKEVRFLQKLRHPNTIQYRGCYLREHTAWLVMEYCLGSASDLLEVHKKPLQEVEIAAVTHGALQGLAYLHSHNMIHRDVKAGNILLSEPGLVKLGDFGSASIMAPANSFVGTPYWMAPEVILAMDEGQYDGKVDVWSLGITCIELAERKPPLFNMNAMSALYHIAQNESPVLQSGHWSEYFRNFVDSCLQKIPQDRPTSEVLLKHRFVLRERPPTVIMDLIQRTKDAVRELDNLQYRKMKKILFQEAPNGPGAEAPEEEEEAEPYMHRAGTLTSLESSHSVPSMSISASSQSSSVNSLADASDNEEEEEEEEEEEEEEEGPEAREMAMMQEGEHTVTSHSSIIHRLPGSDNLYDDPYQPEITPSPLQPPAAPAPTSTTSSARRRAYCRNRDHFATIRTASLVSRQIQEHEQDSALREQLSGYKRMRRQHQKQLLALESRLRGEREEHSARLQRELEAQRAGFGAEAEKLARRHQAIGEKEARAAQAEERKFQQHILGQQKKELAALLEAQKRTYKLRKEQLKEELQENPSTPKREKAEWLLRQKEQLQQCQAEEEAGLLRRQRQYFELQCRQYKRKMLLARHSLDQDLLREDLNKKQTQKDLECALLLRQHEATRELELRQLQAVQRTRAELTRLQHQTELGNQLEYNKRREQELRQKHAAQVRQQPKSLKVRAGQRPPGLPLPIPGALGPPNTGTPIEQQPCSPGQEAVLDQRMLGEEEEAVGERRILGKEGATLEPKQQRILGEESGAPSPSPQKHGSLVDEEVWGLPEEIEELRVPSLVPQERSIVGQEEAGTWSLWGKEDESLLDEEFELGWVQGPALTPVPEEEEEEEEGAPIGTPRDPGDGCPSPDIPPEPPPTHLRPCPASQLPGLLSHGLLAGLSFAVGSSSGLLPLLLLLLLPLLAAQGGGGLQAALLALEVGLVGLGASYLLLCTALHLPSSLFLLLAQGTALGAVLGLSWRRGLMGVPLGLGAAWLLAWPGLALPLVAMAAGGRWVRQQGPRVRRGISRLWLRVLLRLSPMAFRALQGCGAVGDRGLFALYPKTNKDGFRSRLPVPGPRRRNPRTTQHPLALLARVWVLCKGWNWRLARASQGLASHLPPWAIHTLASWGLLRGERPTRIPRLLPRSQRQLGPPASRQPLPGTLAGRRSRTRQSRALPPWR
Sequence of UniProt P36897 (whole entry, looked up): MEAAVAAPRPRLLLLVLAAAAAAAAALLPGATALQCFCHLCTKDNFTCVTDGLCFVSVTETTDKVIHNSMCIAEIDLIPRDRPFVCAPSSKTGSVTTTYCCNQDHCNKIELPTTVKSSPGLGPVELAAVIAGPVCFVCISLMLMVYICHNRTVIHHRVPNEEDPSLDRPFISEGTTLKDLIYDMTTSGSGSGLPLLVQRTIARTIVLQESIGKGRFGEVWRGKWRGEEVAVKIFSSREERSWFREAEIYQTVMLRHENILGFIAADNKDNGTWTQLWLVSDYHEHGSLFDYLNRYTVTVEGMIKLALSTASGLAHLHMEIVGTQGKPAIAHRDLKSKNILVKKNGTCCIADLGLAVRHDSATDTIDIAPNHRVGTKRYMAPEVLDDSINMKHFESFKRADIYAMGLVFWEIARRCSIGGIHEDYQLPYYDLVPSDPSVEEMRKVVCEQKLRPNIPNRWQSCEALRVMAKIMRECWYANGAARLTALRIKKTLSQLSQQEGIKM
Sequence of UniProt P51451 (whole entry, looked up): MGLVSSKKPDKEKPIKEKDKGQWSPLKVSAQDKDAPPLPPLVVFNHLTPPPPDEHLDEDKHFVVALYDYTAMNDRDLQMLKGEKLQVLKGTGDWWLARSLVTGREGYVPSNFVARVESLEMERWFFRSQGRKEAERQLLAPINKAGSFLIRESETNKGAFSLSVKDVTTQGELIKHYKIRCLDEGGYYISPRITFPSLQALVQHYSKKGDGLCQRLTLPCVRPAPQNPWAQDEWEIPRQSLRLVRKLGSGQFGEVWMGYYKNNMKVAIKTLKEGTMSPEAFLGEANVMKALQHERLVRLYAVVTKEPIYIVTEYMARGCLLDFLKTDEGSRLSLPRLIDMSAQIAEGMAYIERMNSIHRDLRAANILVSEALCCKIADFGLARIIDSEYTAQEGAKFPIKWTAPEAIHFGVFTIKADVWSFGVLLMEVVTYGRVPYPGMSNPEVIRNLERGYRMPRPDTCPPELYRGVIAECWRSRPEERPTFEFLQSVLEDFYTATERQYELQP
Sequence of UniProt O75914 (whole entry, looked up): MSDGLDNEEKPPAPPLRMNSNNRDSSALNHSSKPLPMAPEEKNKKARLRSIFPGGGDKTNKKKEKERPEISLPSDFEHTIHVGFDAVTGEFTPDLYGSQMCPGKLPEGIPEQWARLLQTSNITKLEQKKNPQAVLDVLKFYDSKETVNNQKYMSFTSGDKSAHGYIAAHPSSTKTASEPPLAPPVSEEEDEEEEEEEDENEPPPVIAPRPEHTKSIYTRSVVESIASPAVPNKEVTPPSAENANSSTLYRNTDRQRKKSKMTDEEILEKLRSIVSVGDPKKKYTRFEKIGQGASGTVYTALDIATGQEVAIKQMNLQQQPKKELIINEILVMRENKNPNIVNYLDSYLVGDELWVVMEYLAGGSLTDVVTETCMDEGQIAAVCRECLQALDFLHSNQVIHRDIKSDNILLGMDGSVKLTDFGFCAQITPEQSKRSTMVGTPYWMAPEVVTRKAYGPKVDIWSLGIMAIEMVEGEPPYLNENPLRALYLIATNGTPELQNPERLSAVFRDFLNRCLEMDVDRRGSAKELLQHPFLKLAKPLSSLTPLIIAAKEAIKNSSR
Sequence of UniProt P06493 (whole entry, looked up): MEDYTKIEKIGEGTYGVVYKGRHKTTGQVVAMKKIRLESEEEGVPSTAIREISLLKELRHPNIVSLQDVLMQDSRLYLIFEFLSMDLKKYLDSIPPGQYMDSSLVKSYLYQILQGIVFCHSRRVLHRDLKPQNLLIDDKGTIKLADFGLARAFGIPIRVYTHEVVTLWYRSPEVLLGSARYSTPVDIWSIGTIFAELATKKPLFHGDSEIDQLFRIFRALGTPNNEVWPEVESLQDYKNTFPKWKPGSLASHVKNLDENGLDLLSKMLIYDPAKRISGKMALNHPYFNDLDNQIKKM

Block 1
Target: D(4) dopamine receptor (DRD4, Homo sapiens, UniProt P21917)
Sequence of UniProt P21917 (whole entry, looked up): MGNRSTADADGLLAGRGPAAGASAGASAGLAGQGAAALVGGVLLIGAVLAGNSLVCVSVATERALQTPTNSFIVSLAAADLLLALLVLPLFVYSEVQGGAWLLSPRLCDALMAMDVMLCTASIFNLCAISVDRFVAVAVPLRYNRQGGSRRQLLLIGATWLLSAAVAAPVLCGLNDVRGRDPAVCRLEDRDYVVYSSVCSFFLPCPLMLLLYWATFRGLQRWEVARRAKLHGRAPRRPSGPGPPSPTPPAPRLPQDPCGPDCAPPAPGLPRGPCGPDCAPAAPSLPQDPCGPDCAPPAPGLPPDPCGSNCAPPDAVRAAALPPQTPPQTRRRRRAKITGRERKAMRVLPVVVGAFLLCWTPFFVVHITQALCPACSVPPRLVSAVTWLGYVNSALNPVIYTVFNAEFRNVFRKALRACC
Read-out: binding
Method: radioligand binding
Concentration: 10 µM
| SMILES | inhibition [%] |
| --- | --- |
| COc1cccc(CNC(=O)c2nc3scc(COCc4ccc(C(=O)O)cc4)c3c(=O)[nH]2)c1 | 14 |
| Cc1nc(Cc2cccc(C(F)(F)F)c2)sc1-c1ccc(C(N)=O)nc1 | -2.16 |
| CNC(=O)c1ccc(Nc2ncc(C(F)(F)F)c(NCc3nccnc3N(C)S(C)(=O)=O)n2)cc1 | 7.8 |
| CC(=O)Nc1c(F)cc(C(=O)N[C@H]2CC[C@H](O)CC2)cc1O[C@@H](C)c1ccccc1 | 36 |
| CC1=C(C#N)C(c2ccc3c(c2)c(NC(=O)c2ccccc2C)nn3C)C(C#N)=C(C)N1 | 0.21 |
| CC(=O)Nc1nc(CN2CCC[C@H](Cc3cc(C)nc(C)c3)C2)cs1 | 6.82 |
| Cc1nc(N2CC[C@@H](O)C2)ncc1-c1cc(C(F)(F)F)cc2[nH]ncc12 | 7.69 |
| COCCc1ccc(-c2c(C)nc3c(N4CCOCC4)ccnn23)cn1 | -3.39 |
| O=C(NC[C@@H]1[C@H]2CN(C(=O)OCc3cc(C(F)(F)F)cc(C(F)(F)F)c3)C[C@@H]12)c1ccc2[nH]nnc2c1 | 6.75 |
| O=C(Nc1ccc(-n2nc(-c3cccnc3)cc2C(F)(F)F)cn1)c1ccc(-c2ccccc2)c(F)c1 | -10.6 |

Block 2
Cell line: mouse MPNST tumor cells
Method: high-content immunofluorescence imaging
Measured: nuclear SOX9
Concentration: 10 µM
Time: 12 h
Notes: mean of 2 replicates
Baseline: DMSO control
Direction: higher = more nuclear SOX9
| SMILES | nuclear SOX9 intensity |
| --- | --- |
| CCOc1cc(CC(=O)N[C@@H](CC(C)C)c2ccccc2N2CCCCC2)ccc1C(=O)O | 110 % of DMSO and 87 % of DMSO |
| COc1cc(NS(=O)(=O)c2ccc(N)cc2)ncn1 | 93.5 % of DMSO |
| CCCc1cc(C)n(C)c(=O)c1CN(C)C(=O)c1cc(-c2ccc(N3CCN(C(C)C)CC3)nc2)cc2c1cnn2C(C)C | 135 % of DMSO |
| COc1nc2sc(C(=O)NC3CC3)c(N)c2c(C)c1Cl | 88.3 % of DMSO |
| N#Cc1ccc(NCCNCC(=O)N2CCC[C@H]2C#N)nc1 | 88 % of DMSO |
| CC1(C)C[C@@H]1C(=O)N/C(=C\CCCCSC[C@H](N)C(=O)O)C(=O)O | 112 % of DMSO |
| CN(C)CCCCSC(=N)N | 88.6 % of DMSO |

Block 3
Structure (SMILES): O=C(Nc1ccccc1)Nc1cccc(Oc2ccc3nccn3n2)c1
Concentration: 1 µM
| target | assay | setting | scale | remaining binding |
| --- | --- | --- | --- | --- |
| BMX (Homo sapiens, UniProt P51813) | competitive binding panel | – | baseline: vehicle | 100% |
| SRC (Homo sapiens, UniProt P12931) | competitive binding panel | – | baseline: vehicle | 100% |
| TGFBR1 (Homo sapiens, UniProt P36897) | competitive binding panel | – | baseline: vehicle | 95% |
| MKNK2 (Homo sapiens, UniProt Q9HBH9) | competitive binding panel | – | baseline: vehicle | 100% |
| NTRK2 (Homo sapiens, UniProt Q16620) | competitive binding | TRKB | – | 100% |
| TAOK2 (Homo sapiens, UniProt Q9UL54) | competitive binding panel | – | baseline: vehicle | 100% |
| BLK (Homo sapiens, UniProt P51451) | competitive binding panel | – | baseline: vehicle | 100% |
| FLT3 (Homo sapiens, UniProt P36888) | competitive binding scan | autoinhibited form | – | 100% |

Block 4
Compound: N#CC(c1ccnc(NCCc2cccnc2)n1)c1nc2ccccc2s1 (stereo not drawn)
Read-out: enzyme activity
Action: inhibitor
Concentration: 0.5 µM
Baseline: control
| target | remaining activity |
| --- | --- |
| KDR (Homo sapiens, UniProt P35968) | 99.7% |
| MARK4 (Homo sapiens, UniProt Q96L34) | 91.6% |
| MAPK11 (Homo sapiens, UniProt Q15759) | 101% |
| PAK3 (Homo sapiens, UniProt O75914) | 102% |
| MAP2K1 (Homo sapiens, UniProt Q02750) | 93.2% |
| GRK4 (Homo sapiens, UniProt P32298) | 103% |
| CAMK4 (Homo sapiens, UniProt Q16566) | 99% |
| DDR2 (Homo sapiens, UniProt Q16832) | 94.5% |
| Cyclin-dependent kinase 1, with cyclin A (CDK1, Homo sapiens, UniProt P06493) | 83% |
| CLK3 (Homo sapiens, UniProt P49761) | 88.5% |
| PNCK (Homo sapiens, UniProt Q6P2M8) | 100% |
| PRKG2 (Homo sapiens, UniProt Q13237) | 98.1% |
| MINK1 (Homo sapiens, UniProt Q8N4C8) | 93.3% |
| Cyclin-dependent kinase 9, with cyclin K (CDK9, Homo sapiens, UniProt P50750) | 26.6% |
